Measurements from different studies.
Compare with care: the assays were run in different laboratories. Several values in a cell are separate wells, animals, samples, runs or records. ± marks the error that the study gave. Converted amounts (≈) assume the structure as drawn.

Structure (SMILES)	tested on	test	test system	setting	scale	endpoint	value
CCCCCCCCCCCCCCCCOP(=O)([O-])OCC[N+](C)(C)C	Trypanosoma cruzi	reporter mRNA translation, inhibitor, item: Renilla luciferase mRNA	cell-free extract	concentration not given	reference: positive over negative control	translation activity	152% and 103%
CCOc1cncc(-c2ccc(NC(=O)C3(c4ccnc(NS(=O)(=O)C5CC5)n4)CCOCC3)nc2)n1	SNU-398	cell proliferation, CellTiter-Glo	–	72 h	–	IC50	0.289 µM
C=CC(=O)Nc1cccc(Cn2ncc3cnc(Nc4cnn(CCOC)c4)nc32)c1	MAP3K4 human	binding, KINOMEscan	–	100 nM	lower = stronger binding	percent of control	100%
CC(C)c1ccc(N(C)c2ccc3c(c2)OCC[C@H]3CNc2cnccc2C(=O)O)cc1	COLO-741	cell growth or viability, ATP luminescence	–	7 days	–	IC50	0.0104 µM
CNS(=O)(=O)Nc1nccc(Cc2c(C)c3ccc(Oc4ncccc4F)cc3oc2=O)c1F	NCI-H1573	cell viability	–	7 days	–	IC50	0.0297 µM
COC1CN([C@H]2CC[C@H]([C@@]3(C)Oc4c(Cl)cc(C(=O)NCc5c(SC)cc(C)[nH]c5=O)c(C)c4O3)CC2)C1	–	RNA-seq, item: AFAP1L1 mouse homolog	mouse, HT-1376 xenograft, whole blood	dose not given	reference: vehicle	log2 fold change	1.14
CC(=O)N(Cc1cccnc1)c1cccc(-c2nc3ccccc3s2)c1	Trypanosoma cruzi	reporter mRNA translation, inhibitor, item: capped polyadenylated Renilla luciferase mRNA	cell-free extract	concentration not given	reference: positive over negative control	translation activity	109% and 95.2% and 98.3% and 107%
COc1cc(O)ccc1CCC(c1ccc(O)cc1)c1cc2c(c(C)c1O)OC(c1ccc(O)cc1)CC2 (mixture of isomers)	–	item: LTB4 isomers	human whole blood	0.3 µM, together with: Escherichia coli	–	amount	424 ± 95 pg/mL blood
CN1CCCNC(=O)c2cccc(c2)C(=O)NCCCN(C)CCCNc2cccc3c2C(=O)c2cccc(c2C3=O)NCCC1	SAS	RNA-Seq, item: HNRNPDL mRNA	–	1 µM, 6 h	reference: untreated cells	log2 fold change	0.643
Nc1ncc(-c2cc(-c3cnn(CC(F)(F)F)c3)ncc2F)nc1C(=O)NC1CNCC(F)C1 (stereo not drawn)	PKAC-alpha	KINOMEscan competition binding	–	1 µM	reference: DMSO control	remaining binding	92%
C=C(NC(=O)c1csc(-c2nc3c(cc2O)-c2nc(cs2)C(=O)NC(C(C)O)C(=O)NC(=C(C)OC)c2nc(cs2)C(=O)NC2c4nc(cs4)C(=O)NC(COC(=O)c4c5c6c(cccc6n4O)COC(=O)C(OC4CC(C)(O)C(N(C)C)C(C)O4)C2OC5)c2nc-3cs2)n1)C(N)=O (stereo not drawn)	Streptococcus pyogenes	broth microdilution	–	–	–	MIC90	0.0312 mg/L (≈ 0.0217 µM)
Cc1ncsc1-c1ccc(C(C)NC(=O)C2CC(O)CN2C(=O)C(NC(=O)CCCCCCCCCCN2CCCC(Nc3ncc(Cl)c(Nc4ccccc4S(=O)(=O)C(C)C)n3)C2)C(C)(C)C)cc1 (stereo not drawn)	22Rv1	RNA-seq, item: PSD4 mRNA	–	concentration not given	reference: DMSO	log2 fold change	-1.88

Excerpt of the above:
Structure (SMILES)	tested on	test	test system	setting	scale	endpoint	value
CCOc1cncc(-c2ccc(NC(=O)C3(c4ccnc(NS(=O)(=O)C5CC5)n4)CCOCC3)nc2)n1	SNU-398	cell proliferation, CellTiter-Glo	–	72 h	–	IC50	0.289 µM
C=CC(=O)Nc1cccc(Cn2ncc3cnc(Nc4cnn(CCOC)c4)nc32)c1	MAP3K4 human	binding, KINOMEscan	–	100 nM	lower = stronger binding	percent of control	100%
